Measured values from different studies.
Numbered parts are unrelated; each lists some results of a single study. Several values in a cell are separate wells, animals, samples, runs or records.
Sequence of UniProt P11802 (whole entry, looked up): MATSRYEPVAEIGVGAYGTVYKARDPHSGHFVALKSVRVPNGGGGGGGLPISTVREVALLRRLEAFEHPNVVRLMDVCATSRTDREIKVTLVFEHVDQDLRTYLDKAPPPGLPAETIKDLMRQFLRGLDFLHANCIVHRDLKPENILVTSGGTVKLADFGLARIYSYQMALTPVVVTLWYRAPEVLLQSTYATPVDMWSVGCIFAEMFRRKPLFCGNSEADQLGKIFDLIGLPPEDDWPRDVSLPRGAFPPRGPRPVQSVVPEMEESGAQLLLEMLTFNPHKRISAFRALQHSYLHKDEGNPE
Sequence of UniProt Q9H0K1 (whole entry, looked up): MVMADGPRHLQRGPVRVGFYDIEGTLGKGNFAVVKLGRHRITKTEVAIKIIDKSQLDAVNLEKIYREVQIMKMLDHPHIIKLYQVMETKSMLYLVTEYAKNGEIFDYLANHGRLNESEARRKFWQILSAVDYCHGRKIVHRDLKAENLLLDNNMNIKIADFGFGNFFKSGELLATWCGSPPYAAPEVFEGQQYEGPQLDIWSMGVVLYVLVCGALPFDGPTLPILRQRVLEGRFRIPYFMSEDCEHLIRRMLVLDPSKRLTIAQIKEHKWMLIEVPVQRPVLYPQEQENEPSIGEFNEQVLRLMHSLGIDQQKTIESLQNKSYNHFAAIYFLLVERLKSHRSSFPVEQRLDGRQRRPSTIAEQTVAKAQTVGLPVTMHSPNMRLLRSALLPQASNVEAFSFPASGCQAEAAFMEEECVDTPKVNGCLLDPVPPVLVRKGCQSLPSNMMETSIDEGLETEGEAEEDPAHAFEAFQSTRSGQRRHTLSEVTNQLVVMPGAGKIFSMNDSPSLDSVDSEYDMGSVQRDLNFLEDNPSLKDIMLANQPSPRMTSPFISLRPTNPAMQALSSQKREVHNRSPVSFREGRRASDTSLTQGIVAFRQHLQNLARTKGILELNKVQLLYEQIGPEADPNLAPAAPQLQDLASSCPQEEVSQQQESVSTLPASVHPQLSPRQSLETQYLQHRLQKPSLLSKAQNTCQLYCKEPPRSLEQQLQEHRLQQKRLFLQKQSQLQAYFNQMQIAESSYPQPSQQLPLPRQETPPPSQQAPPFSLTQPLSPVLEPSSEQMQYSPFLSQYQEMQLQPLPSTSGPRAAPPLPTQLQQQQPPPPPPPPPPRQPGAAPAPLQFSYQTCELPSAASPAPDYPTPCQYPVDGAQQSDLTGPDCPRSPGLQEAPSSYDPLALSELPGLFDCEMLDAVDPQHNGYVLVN
Sequence of UniProt Q9Y6R4 (whole entry, looked up): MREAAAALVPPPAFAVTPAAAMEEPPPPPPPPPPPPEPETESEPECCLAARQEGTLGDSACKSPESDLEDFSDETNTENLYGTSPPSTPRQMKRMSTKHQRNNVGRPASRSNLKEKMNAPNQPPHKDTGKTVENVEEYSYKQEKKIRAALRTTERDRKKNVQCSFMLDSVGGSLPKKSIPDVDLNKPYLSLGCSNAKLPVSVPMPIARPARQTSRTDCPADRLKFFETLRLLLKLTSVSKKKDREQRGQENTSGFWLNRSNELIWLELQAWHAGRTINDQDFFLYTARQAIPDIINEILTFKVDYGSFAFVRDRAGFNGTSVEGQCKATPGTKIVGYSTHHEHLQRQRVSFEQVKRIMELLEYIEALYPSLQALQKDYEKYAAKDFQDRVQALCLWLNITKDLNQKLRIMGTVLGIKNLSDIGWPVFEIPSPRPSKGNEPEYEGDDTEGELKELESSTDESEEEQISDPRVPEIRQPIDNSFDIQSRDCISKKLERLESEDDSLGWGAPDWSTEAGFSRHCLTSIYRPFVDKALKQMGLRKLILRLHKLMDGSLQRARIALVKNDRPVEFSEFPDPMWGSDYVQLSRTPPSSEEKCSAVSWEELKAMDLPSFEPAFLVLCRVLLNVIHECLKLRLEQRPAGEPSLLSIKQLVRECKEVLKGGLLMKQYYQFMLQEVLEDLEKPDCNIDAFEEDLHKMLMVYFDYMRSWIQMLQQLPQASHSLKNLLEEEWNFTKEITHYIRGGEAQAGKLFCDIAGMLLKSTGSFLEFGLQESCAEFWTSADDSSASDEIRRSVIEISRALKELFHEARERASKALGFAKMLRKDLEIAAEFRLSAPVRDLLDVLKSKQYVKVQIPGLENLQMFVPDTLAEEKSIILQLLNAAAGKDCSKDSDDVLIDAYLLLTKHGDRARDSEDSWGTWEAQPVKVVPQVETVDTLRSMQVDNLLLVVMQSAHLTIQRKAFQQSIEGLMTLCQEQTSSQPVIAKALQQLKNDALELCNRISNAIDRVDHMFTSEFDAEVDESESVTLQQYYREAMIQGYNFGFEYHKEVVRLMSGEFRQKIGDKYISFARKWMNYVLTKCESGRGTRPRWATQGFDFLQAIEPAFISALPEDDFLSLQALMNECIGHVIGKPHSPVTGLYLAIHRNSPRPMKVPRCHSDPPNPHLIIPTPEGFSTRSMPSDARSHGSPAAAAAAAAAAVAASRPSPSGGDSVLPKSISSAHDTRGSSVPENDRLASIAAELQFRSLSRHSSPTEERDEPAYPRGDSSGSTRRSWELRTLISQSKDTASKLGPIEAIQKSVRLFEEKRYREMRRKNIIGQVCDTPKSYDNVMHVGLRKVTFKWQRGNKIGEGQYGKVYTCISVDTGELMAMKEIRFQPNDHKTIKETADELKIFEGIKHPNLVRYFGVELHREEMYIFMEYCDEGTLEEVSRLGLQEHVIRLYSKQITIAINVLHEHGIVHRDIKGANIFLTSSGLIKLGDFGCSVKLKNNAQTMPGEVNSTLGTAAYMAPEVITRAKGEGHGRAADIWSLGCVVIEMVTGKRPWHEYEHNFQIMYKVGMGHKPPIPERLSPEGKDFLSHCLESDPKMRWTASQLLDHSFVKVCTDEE
Sequence of UniProt Q13873 (whole entry, looked up): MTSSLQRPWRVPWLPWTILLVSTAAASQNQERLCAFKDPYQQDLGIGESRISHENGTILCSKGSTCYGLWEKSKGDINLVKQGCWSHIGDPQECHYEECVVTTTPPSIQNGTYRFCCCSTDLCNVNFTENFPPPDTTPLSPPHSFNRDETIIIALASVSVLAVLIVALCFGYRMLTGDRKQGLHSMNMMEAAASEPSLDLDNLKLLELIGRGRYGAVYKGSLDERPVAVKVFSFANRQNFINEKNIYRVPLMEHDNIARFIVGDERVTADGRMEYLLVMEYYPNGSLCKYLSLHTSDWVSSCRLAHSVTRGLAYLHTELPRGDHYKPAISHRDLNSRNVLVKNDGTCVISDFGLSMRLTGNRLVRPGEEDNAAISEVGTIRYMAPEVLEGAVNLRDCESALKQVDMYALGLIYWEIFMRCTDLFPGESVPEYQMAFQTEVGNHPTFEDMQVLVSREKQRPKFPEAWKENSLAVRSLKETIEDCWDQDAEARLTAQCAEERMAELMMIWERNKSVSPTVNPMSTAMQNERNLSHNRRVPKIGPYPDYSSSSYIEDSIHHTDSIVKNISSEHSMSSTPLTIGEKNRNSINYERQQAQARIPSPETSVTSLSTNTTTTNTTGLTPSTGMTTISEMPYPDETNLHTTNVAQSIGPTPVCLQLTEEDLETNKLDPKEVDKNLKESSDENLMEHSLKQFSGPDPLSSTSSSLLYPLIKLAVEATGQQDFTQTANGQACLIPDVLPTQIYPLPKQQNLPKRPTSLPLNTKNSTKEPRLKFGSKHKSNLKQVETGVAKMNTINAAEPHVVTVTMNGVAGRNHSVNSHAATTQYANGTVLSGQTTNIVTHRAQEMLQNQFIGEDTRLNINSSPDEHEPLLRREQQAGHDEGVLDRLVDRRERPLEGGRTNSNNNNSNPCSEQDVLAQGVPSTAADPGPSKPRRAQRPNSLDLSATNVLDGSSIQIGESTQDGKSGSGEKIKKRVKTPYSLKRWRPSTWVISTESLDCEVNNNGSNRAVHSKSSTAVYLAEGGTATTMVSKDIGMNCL
Sequence of UniProt O00238 (whole entry, looked up): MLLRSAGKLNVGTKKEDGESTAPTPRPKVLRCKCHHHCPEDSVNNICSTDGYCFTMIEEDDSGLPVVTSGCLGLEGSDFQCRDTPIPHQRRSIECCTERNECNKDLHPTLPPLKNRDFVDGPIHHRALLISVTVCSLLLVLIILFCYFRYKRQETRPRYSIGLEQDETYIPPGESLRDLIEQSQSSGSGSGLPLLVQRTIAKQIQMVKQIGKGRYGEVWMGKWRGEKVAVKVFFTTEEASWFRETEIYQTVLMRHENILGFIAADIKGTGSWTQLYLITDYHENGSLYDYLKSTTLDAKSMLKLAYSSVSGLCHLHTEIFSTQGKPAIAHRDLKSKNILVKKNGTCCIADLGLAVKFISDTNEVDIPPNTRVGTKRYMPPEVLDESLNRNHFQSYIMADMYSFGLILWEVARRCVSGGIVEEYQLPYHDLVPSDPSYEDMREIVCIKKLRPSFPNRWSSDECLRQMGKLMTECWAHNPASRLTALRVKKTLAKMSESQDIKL

Set 1 — concentration: 1 µM
Structure (SMILES): N#CC1(c2ccccn2)CCN(Cc2cc(C(=O)N3CCCC3)c(=O)n3ccccc23)CC1
| target | read-out | method | remaining binding [%] |
| --- | --- | --- | --- |
| BMPR1B (Homo sapiens, UniProt O00238) | cell-free assay | competition with immobilised ligand | 95 |
| BMPR2 (Homo sapiens, UniProt Q13873) | cell-free assay | competition with immobilised ligand | 92 |
| CDK19 (Homo sapiens, UniProt Q9BWU1) |  | competition binding | 75 |
| PAK1 (Homo sapiens, UniProt Q13153) | cell-free assay | competition with immobilised ligand | 100 |
| Tyrosine-protein kinase ABL1, phosphorylated (ABL1, Homo sapiens, UniProt P00519) | cell-free assay | competition with immobilised ligand | 89 |
| MKNK1 (Homo sapiens, UniProt Q9BUB5) | cell-free assay | competition with immobilised ligand | 100 |
| CDC42BPB (Homo sapiens, UniProt Q9Y5S2) | cell-free assay | competition with immobilised ligand | 63 |
| MELK (Homo sapiens, UniProt Q14680) | cell-free assay | competition with immobilised ligand | 78 |
| STK36 (Homo sapiens, UniProt Q9NRP7) | cell-free assay | competition with immobilised ligand | 98 |
| MAP3K4 (Homo sapiens, UniProt Q9Y6R4) | cell-free assay | competition with immobilised ligand | 90 |
| Cyclin-dependent kinase 4, with cyclin D3 (CDK4, Homo sapiens, UniProt P11802) | cell-free assay | competition with immobilised ligand | 98 |
| MAP3K15 (Homo sapiens, UniProt Q6ZN16) | cell-free assay | competition with immobilised ligand | 100 |
| ERN1 (Homo sapiens, UniProt O75460) | cell-free assay | competition with immobilised ligand | 100 |
| MAP4K2 (Homo sapiens, UniProt Q12851) | cell-free assay | competition with immobilised ligand | 96 |
| EGFR (Homo sapiens, UniProt P00533, del746-750) | cell-free assay | competition with immobilised ligand | 92 |
| SIK2 (Homo sapiens, UniProt Q9H0K1) | cell-free assay | competition with immobilised ligand | 100 |
| DCLK2 (Homo sapiens, UniProt Q8N568) | cell-free assay | competition with immobilised ligand | 100 |
| STK16 (Homo sapiens, UniProt O75716) | cell-free assay | competition with immobilised ligand | 100 |
| NEK5 (Homo sapiens, UniProt Q6P3R8) | cell-free assay | competition with immobilised ligand | 82 |
| CAMKK2 (Homo sapiens, UniProt Q96RR4) | cell-free assay | competition with immobilised ligand | 100 |

Set 2 — read-out: enzyme activity; action: inhibitor; concentration: 10 µM
Target: Calcium/calmodulin-dependent protein kinase type II subunit alpha (CAMK2A, Homo sapiens, UniProt Q9UQM7)
Sequence of UniProt Q9UQM7 (whole entry, looked up): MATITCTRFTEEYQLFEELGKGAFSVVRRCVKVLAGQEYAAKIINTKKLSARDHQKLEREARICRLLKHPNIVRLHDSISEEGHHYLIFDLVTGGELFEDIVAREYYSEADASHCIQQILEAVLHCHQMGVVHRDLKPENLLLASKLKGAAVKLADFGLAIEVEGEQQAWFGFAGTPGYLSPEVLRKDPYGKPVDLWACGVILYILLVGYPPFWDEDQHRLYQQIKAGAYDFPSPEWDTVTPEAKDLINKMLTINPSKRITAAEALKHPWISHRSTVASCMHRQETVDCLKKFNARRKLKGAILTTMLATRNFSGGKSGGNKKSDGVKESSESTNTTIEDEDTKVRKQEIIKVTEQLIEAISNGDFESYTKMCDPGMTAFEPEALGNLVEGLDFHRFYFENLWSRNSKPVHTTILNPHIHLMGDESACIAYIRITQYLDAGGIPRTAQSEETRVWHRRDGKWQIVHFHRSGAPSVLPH
| SMILES | inhibition [%] |
| --- | --- |
| CC1(C)CC[C@]2(C(=O)O[C@@H]3O[C@H](CO)[C@@H](O)[C@H](O)[C@H]3O)CC[C@]3(C)C(=CC[C@@H]4[C@@]5(C)CC[C@H](O[C@@H]6O[C@H](CO)[C@@H](O)[C@H](O[C@@H]7O[C@H](CO)[C@@H](O)[C@H](O)[C@H]7O)[C@H]6O[C@@H]6O[C@H](CO)[C@@H](O)[C@H](O)[C@H]6O)[C@@](C)(CO)[C@@H]5CC[C@]43C)[C@@H]2C1 | -14 |
| CC(C)(C)NCC(O)CSc1nc(-c2ccc(C(N)=O)s2)cs1 (stereo not shown) | -7 |
| CCC(CC)COC(=O)[C@H](C)N[P@](=O)(OC[C@H]1O[C@@](C#N)(c2ccc3c(N)ncnn23)[C@H](O)[C@@H]1O)Oc1ccccc1 | -2 |
| O=C1c2cccc(O)c2C(=O)c2c(O)cc(CO)cc21 | -1 |
| OC[C@H]1O[C@@](CO)(OC[C@@]2(OC[C@@]3(OC[C@@]4(OC[C@@]5(OC[C@@]6(OC[C@@]7(OC[C@@]8(O[C@H]9O[C@H](CO)[C@@H](O)[C@H](O)[C@H]9O)O[C@H](CO)[C@@H](O)[C@@H]8O)O[C@H](CO)[C@@H](O)[C@@H]7O)O[C@H](CO)[C@@H](O)[C@@H]6O)O[C@H](CO)[C@@H](O)[C@@H]5O)O[C@H](CO)[C@@H](O)[C@@H]4O)O[C@H](CO)[C@@H](O)[C@@H]3O)O[C@H](CO)[C@@H](O)[C@@H]2O)[C@@H](O)[C@@H]1O | 8 |
| CC(C)C[C@H](N)C(=O)N[C@@H](Cc1ccccc1)C(=O)O | 18 |
| Oc1ccc(/C=C/c2cc(O)cc(O)c2)cc1 | 28 |
| CC1(C)C(=O)[C@]2(C)CC[C@H]1C2 | -44 |
| O[C@@H]1[C@@H](O)[C@@H]2OC[C@@H](O2)[C@H]1O | -41 |
| O=C(/C=C/c1ccc(O[C@@H]2O[C@H](CO)[C@@H](O)[C@H](O)[C@H]2O[C@@H]2OC[C@](O)(CO)[C@H]2O)cc1)c1ccc(O)cc1O | 10 |
| CCCCOC(=O)/C=C\C(=O)OCCCC | 8 |
| Cc1ccccc1C=O | -20 |
| CCOC(=O)C[N+]1(C)CC[C@@H](OC(=O)[C@](O)(c2ccccc2)C2CCCC2)C1 (stereo partly shown) | -8 |
| C[C@]1(C(=O)O)CC[C@]2(C)CC[C@]3(C)C(=CC(=O)[C@@H]4[C@@]5(C)CC[C@H](O[C@@H]6O[C@H](C(=O)O)[C@@H](O)[C@H](O)[C@H]6O[C@@H]6O[C@H](C(=O)O)[C@@H](O)[C@H](O)[C@H]6O)[C@](C)(CO)[C@@H]5CC[C@]43C)[C@@H]2C1 | 2 |

Set 3 — read-out: enzyme activity; action: inhibitor; concentration: 0.5 µM; relative to: control
Target: Ephrin type-A receptor 8 (EPHA8, Homo sapiens, UniProt P29322)
Target sequence (P29322 1-1005): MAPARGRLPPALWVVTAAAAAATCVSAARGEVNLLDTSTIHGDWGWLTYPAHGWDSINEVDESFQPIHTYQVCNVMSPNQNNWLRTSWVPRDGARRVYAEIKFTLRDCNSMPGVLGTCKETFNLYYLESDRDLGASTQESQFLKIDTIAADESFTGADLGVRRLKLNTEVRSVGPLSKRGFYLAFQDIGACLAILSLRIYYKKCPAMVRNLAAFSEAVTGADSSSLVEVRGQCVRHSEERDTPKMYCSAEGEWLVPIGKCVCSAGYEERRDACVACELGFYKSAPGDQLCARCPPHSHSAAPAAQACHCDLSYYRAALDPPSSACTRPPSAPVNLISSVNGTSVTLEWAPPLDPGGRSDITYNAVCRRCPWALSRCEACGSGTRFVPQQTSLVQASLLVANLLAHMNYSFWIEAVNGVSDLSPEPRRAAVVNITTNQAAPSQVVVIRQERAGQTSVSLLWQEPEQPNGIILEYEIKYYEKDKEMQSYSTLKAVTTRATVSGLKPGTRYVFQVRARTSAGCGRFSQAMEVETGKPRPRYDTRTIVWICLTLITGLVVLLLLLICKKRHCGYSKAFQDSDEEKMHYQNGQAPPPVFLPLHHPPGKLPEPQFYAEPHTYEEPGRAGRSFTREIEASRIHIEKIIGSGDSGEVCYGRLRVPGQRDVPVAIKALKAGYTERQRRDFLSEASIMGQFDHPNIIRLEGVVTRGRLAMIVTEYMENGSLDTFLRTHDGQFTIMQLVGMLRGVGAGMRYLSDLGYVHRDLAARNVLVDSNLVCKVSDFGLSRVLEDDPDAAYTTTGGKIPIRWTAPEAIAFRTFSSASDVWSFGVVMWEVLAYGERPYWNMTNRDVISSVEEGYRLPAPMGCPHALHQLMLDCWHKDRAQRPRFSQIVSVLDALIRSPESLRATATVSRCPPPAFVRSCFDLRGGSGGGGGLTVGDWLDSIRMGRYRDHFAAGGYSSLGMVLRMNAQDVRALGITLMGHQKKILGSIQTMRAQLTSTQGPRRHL
| SMILES | remaining activity |
| --- | --- |
| COc1cccc(-c2cc(=O)c3ccccc3o2)c1N | 96.3% |
| COc1ccc2c(c1)c(C1=C(c3c[nH]c4ccccc34)C(=O)NC1=O)cn2CCCN(C)C | 102% |
| O=C(c1cc2cc(O)ccc2[nH]1)c1cc2cc(O)ccc2[nH]1 | 92.9% |
| c1ccc2c(-c3ccncc3)c[nH]c2c1 | 101% |
| Oc1cccc(-c2nc(N3CCOCC3)c3oc4ncccc4c3n2)c1 | 93.9% |
| O=C1Nc2ccc(Br)cc2/C1=C/c1cc2c([nH]1)CCCC2 | 94.5% |
| O=c1cc(N2CCOCC2)oc2c(-c3ccccc3)cccc12 | 103% |
| CN(C)S(=O)(=O)c1ccc2c(c1)/C(=C/c1cc3c([nH]1)CCCC3)C(=O)N2 | 100% |

Set 4 — cell line: mouse MPNST tumor cells; method: high-content nuclear imaging; refers to: cell number; concentration: 10 µM; time: 12 h; notes: mean of 2 replicates; relative to: plate mean; direction: higher = more cells
| Structure (SMILES) | nuclei count |
| --- | --- |
| CC1(C)NC(=O)N(c2ccc([N+](=O)[O-])c(C(F)(F)F)c2)C1=O | 0.529 z-score |
| CC(C)c1c(NC(=O)Nc2ccc(Cl)cc2)c(=O)n(-c2ccccc2)n1C | 1.12 z-score |
| CCCCCCCCCCC(C)(C)C(=O)Nc1c(OC)cc(OC)cc1OC | 2.24 z-score |
| Cc1ccccc1C(=O)c1ccc(Nc2ccc(Br)cc2N)cc1Cl | 1.07 z-score |
| CC(C)(O)c1ccn2c(-c3ccc(F)c(-c4ccc(F)cc4C#N)c3)cnc2c1F | 1.38 z-score |
| C/C=C1\C(=O)C[C@H]2[C@@H]3CCC4=CC(=O)CC[C@]4(C)[C@H]3CC[C@]12C | -2.16 z-score |
| O=C1NCCc2[nH]c(-c3ccncc3)cc21 | -4.16 z-score |
| C[C@]12C=CC(=O)C=C1CC[C@H]1[C@@H]3C[C@@H](O)[C@](O)(C(=O)CO)[C@@]3(C)C[C@H](O)[C@@]12F | 5.85 z-score |
| O=C(Nc1ccccc1C(=O)NC1CCCCNC1=O)c1cc2ccccc2s1 (stereo not shown) | 2.39 z-score |
| COc1cc(C#N)ccc1S(=O)(=O)Nc1ccc2c(c1)cc(C)c(=O)n2C | 1.15 z-score and 0.682 z-score |
| CC/C(=C(\c1ccccc1)c1ccc(OCCN(C)C)cc1)c1ccccc1 | -7.33 z-score and -5.57 z-score |
| CO[C@H]1O[C@@H]2O[C@@]3(C)CC[C@H]4[C@H](C)CC[C@@H]([C@H]1C)[C@@]24OO3 | 0.536 z-score |
| O=C(O)c1ccc(N2C(=O)C(=Cc3ccc(-c4ccc([N+](=O)[O-])cc4)o3)C=C2c2ccccc2)cc1 | -0.362 z-score |

Some of these lines once more (set 4):
| Structure (SMILES) | nuclei count |
| --- | --- |
| CC(C)(O)c1ccn2c(-c3ccc(F)c(-c4ccc(F)cc4C#N)c3)cnc2c1F | 1.38 z-score |
| C/C=C1\C(=O)C[C@H]2[C@@H]3CCC4=CC(=O)CC[C@]4(C)[C@H]3CC[C@]12C | -2.16 z-score |
| O=C1NCCc2[nH]c(-c3ccncc3)cc21 | -4.16 z-score |
| C[C@]12C=CC(=O)C=C1CC[C@H]1[C@@H]3C[C@@H](O)[C@](O)(C(=O)CO)[C@@]3(C)C[C@H](O)[C@@]12F | 5.85 z-score |
| O=C(Nc1ccccc1C(=O)NC1CCCCNC1=O)c1cc2ccccc2s1 (stereo not shown) | 2.39 z-score |
| COc1cc(C#N)ccc1S(=O)(=O)Nc1ccc2c(c1)cc(C)c(=O)n2C | 1.15 z-score and 0.682 z-score |
| CC/C(=C(\c1ccccc1)c1ccc(OCCN(C)C)cc1)c1ccccc1 | -7.33 z-score and -5.57 z-score |
| CO[C@H]1O[C@@H]2O[C@@]3(C)CC[C@H]4[C@H](C)CC[C@@H]([C@H]1C)[C@@]24OO3 | 0.536 z-score |
| O=C(O)c1ccc(N2C(=O)C(=Cc3ccc(-c4ccc([N+](=O)[O-])cc4)o3)C=C2c2ccccc2)cc1 | -0.362 z-score |
